Assay results from different studies.
Each line is one published result; not all experiments were run side by side. Several values in a cell are separate wells, animals, samples, runs or records. Numbers after ± are the reported error.

Structure (SMILES)	test	test system	setting	how to read	quantity	value
N#C[C@@]12C[C@@H]1[C@@H](n1cnc3c(N[C@@H](C4CCC4)C4CC4)nc(I)nc31)[C@H](O)[C@@H]2O		Wistar rat, male, plasma	oral, 1.0 mg/kg		Vd	165 L/kg
N#Cc1ccc2c(c1)[C@H]1CCCN(C(=O)c3ccc4[nH]cnc4c3)[C@H]1C2		human males	160 mg, day 7		SHBG level	34.8 nmol/L
COc1ncc(-c2nc3c(n2C(C)C)[C@H](c2ccc(Cl)cc2)N(c2cc(Cl)cn(C)c2=O)C3=O)c(OC)n1		human patients, plasma	oral, 250 mg, high-dose arm, cycle 2 day 1		median half-life	20.3 h
Cn1cncc1[C@@](N)(c1ccc(Cl)cc1)c1ccc2c(c1)c(-c1cccc(Cl)c1)cc(=O)n2C		human, plasma	300 mg/m^2/dose, initial cohort, mean	relative to: AUC0-inf at 200 mg/m^2/dose	AUC0-inf ratio	3.5 fold
COc1cc2nccc(Oc3ccc(NC(=O)c4cc5c(n(-c6ccccc6)c4=O)CCCC5=O)nc3)c2cc1OC		relapsed or refractory AML	oral, 6 mg once daily		grade ≥3 Thrombocytopenia patients	33.3%
Cc1ccc(C(=O)Nc2ccnc(S(N)(=O)=O)c2)c(N2CCCC(F)(F)CC2)n1		rhesus monkey, plasma	intravenous, dose not given, 90 min		unbound plasma concentration	189 ± 26.6 nM
C[C@H]1[C@H](OC(=O)CCC(=O)O)O[C@@H]2O[C@@]3(C)CC[C@H]4[C@H](C)CC[C@@H]1[C@@]24OO3		NSG mouse, ML-2 xenograft	oral, 5 days, twice daily		maximum tolerated dose	120 mg/kg
O=C(Nc1nc2cccc(-c3ccc(CN4CCS(=O)(=O)CC4)cc3)n2n1)C1CC1	refers to: arthropod sting allergy	rheumatoid arthritis patients	oral, 150 mg once daily, 4 weeks, any relatedness		treatment-emergent adverse events	0%
Cc1cc(C(=O)NC(C)(C)COc2cccc3c2C(N)=NS(=O)(=O)N3)cc(C)n1	LC-MS metabolite profiling	Sprague-Dawley rat, both sexes, plasma	oral, 100 mg/kg of parent drug, 4 (unit not given)	higher = more metabolite	plasma peak area	391000 a.u.
COc1cc2c(Nc3ccc(Cl)c(Cl)c3F)ncnc2cc1OC[C@@H]1C[C@@H]2CN(C)C[C@@H]2C1		FVB wild-type mice, both sexes, brain	intraperitoneal infusion (osmotic pump), dose not given, 48 h		unbound brain concentration	1.59 ng/g
C=C(F)C(=O)N1CCN(c2nc(OC[C@@H]3CCCN3C)nc3c2CCN(c2cccc4cccc(Cl)c24)C3)C[C@@H]1CC#N		healthy volunteers, plasma	oral, 400 mg twice daily		AUC(0-tau)	12700 ng·h/mL
COc1cc2[nH]c(C)c(-c3cncnc3)c(=O)c2cc1Cl		PAMPA	pH 7.4		Papp	11 ×10⁻⁶ cm/s
CO[C@H]1C[C@@H]2CC[C@@H](C)[C@@](O)(O2)C(=O)C(=O)N2CCCC[C@H]2C(=O)O[C@H]([C@H](C)C[C@@H]2CC[C@@H](OC(=O)NCCOCCOCCOCCOCCOCCOCCOCCOCCC(=O)N3CCc4cc(Cn5nc(-c6ccc7oc(N)nc7c6)c6c(N)ncnc65)ccc4C3)[C@H](OC)C2)C[C@@H](O)[C@H](C)/C=C(\C)[C@@H](O)[C@@H](OC)C(=O)[C@H](C)C[C@H](C)/C=C/C=C/C=C/1C		mice, plasma	intraperitoneal, 1 mg/kg, weekly dosing		unbound Cmax	2 to 8 nM
Cc1cc(C)cc(NC(=O)Nc2ccc(N3CCCCC3)cc2)c1		sheep erythrocytes	1 h, pH 7.5		maximum haemolysis	33.8%
Cc1cc(Nc2cc3ncccc3c(N[C@@H]3C[C@H]4CC[C@@H](C3)N4CCC#N)n2)n[nH]1		healthy human subjects	oral, 10 mg, 14 days, multiple ascending dose		pruritus incidence	0%
CC(C)(C)c1ccc(C(O)CCCN2CCC(C(O)(c3ccccc3)c3ccccc3)CC2)cc1 (stereo not drawn)		male Hartley guinea pigs, anaesthetized	intravenous, 3 mg/kg group, baseline before infusion		mean blood pressure	36 ± 0.3 mmHg
COc1c(O)cc(C(=O)O)cc1O	LC-MS/MS	male Ross broilers, serum	intravenous, 0.49 mg/kg gallic acid		C0	230 nM
C[C@@H](N)C1CCN(S(=O)(=O)c2cccc3cnccc23)CC1		healthy volunteers	dose not given, fasted,, all doses		TEAE incidence	37.5%
CCOc1c([C@H](C)n2nc(C)c3c(N)ncnc32)cc(Cl)c(F)c1[C@@H]1CNC(=O)C1	ECG	previously treated B-cell malignancy patients	oral, 10 mg once daily, baseline below thresholds		observations with HR above 100 bpm	0%

Structure (SMILES)	test	test system	setting	how to read	quantity	value
CNC(=O)c1ccc(-c2cnc3ncc(Cc4ccc5ncccc5c4)n3n2)cc1F	refers to: Hypoalbuminemia, all grades	cancer patients	oral, 600 mg twice daily, expansion cohort, any causality		patients with adverse event	3%
C[C@@H]1CCO[C@H]2Cn3cc(C(=O)NCc4ccc(F)cc4F)c(=O)c(O)c3C(=O)N12		human paediatric patients, weight sample C to under sample D kg, plasma	oral, 16 mg granules, 24 h, steady state, geometric mean, population PK post-hoc, N 2		trough concentration (C24)	601 ng/mL
CNC(=O)c1cc(Cl)c(OC(C)(C)C(=O)O)cc1OC[C@@H](O)CN1CCC2(CC1)Cc1cc(Cl)ccc1O2		healthy human volunteers, plasma	inhaled, dose not given		Clast	0.044 nM
Cc1c(Br)cc(NC(=O)CS(=O)(=O)O)cc1Br		CD-1 mice, whole blood	intravenous, 2 mg/kg		C0	10600 nM
CC1(C)S[C@@H]2[C@H](NC(=O)[C@H](N)c3ccc(O)cc3)C(=O)N2[C@H]1C(=O)O		male Hartley guinea pigs, anaesthetized	intravenous, 20 mg/kg group, baseline before infusion		mean blood pressure	38 ± 0.2 mmHg
CC(C)(C)c1ccc(O)c(CN(Cc2cc(C(C)(C)C)ccc2O)C2CCC(NC(N)=O)CC2)c1 (stereo not drawn)		C57BL/6 mice, male, plasma	oral, 10 mg/kg		elimination rate constant	6.94e-05 s⁻¹
COc1cc2c3c(n(CCCN4CCOCC4)c(=O)c2cc1OC)-c1cc2c(cc1C3=O)OCO2		beagle dog, female, plasma	intravenous infusion, 50 mg/m^2, 1 h infusion, vehicle 2		Cmax	257 ± 31 ng/mL
CCC(C)n1ncn(-c2ccc(N3CCN(c4ccc(OCC5COC(Cn6cncn6)(c6ccc(Cl)cc6Cl)O5)cc4)CC3)cc2)c1=O (stereo not drawn)		human, plasma	oral, dose not given, day 15 predose, median		trough plasma concentration	139 ng/mL
O=C(CCCCCCC(=O)Nc1ccc(CC[18F])cc1)NO		athymic nu/nu male mice, LNCaP xenograft, brain	intravenous, 1 h		tissue uptake	0.7 ± 0.1 %ID/g
Cc1ccc(C(=O)N(CCCN)C(c2nc3snc(C)c3c(=O)n2Cc2ccccc2)C(C)C)cc1 (stereo not drawn)	hypophosphataemia grade ≥3 (CTCAE)	human patients	intravenous, 13 mg/day		patients with adverse event	0%
CCCCc1oc2ccccc2c1C(=O)c1cc(I)c(OCCN(CC)CC)c(I)c1		male Hartley guinea pigs, anaesthetized	intravenous, 20 mg/kg group, baseline before infusion		mean blood pressure	42 ± 0.3 mmHg
NCc1cc2c(cc1F)C(=O)N(C1CCC(=O)NC1=O)C2 (stereo not drawn)		male Sprague-Dawley rat, whole blood	3 h		remaining compound	92.5%
CN(CC#N)C(=O)C[C@H](Nc1nc2ccccc2[nH]1)c1cccc(C(F)(F)F)c1		human	intravenous infusion, 1 mg/kg, 5 mg/mL formulation		apparent volume of distribution	65.8 ± 16.3 L
Cc1nccn1CC1CCc2c(c3ccccc3n2C)C1=O (stereo not drawn)		male Sprague Dawley rat, plasma	iv bolus, 5 mg/kg, added: tariquidar 15 mg/kg iv		C0	12900 ng/mL
Cc1c(-c2ccc(N3CCc4cccc(C(=O)Nc5nc6ccccc6s5)c4C3)nc2C(=O)O)cnn1CC12CC3(C)CC(C)(C1)CC(OCCNCC[C@H](O)CO)(C3)C2		beagle dog, male, anaesthetised	intravenous infusion, 0.3 mg/kg/min, 45 min	relative to: vehicle	QTcV interval change	14 ms
Cl.[2H]C([2H])([2H])CC(=O)c1cnc(NC(=O)C2CC2)cc1Nc1cccc(-c2ncn(C([2H])([2H])[2H])n2)c1OC	geometric mean	human	10 mg once daily, day 7, fasted, liquid, multiple dose		CL/F	10.9 L/h
CC(C)C[C@H](NC(=O)[C@@H]1COCCCCCC(=O)N2C[C@H](F)C[C@H]2C(=O)N1)C(=O)[C@@]1(C)CO1		male BALB/c mice	intravenous, 72 h		highest dose without toxicity	100 mg/kg
C[C@@H](Nc1cc(F)cc(F)c1)c1cc(C(=O)N(C)C)cc2c(=O)cc(N3CCOCC3)oc12	refers to: M1 metabolite	human	oral, 240 mg, single dose day 1, 5:2 BID regimen		AUC(0-12 h)	3190 ng·h/mL
COc1ccc2c(c1)CN(C(=O)CCN1CCC(Cc3ccccc3)CC1)CC[S@@+]2[O-]	telemetry	conscious male beagle dogs	intravenous, 4 mg/kg, 4 h		systolic blood pressure	133 ± 13 mmHg

Structure (SMILES)	test	test system	setting	how to read	quantity	value
O=C(N[C@H](Cc1c[nH]c2ccccc12)C(=O)Nc1ccncc1)c1ccc(N2CCN(c3ccc(F)cc3F)CC2)cc1F		Swiss Webster mouse, female, liver	oral, 50 mg/kg, 2 h, 20% HPβCD vehicle		concentration	31200 nM
CCN1/C(=C/C(C)=O)Sc2ccc(F)cc21		cynomolgus monkey	oral, 10 mg/kg, 0.5 h post-dose	relative to: pre-dose	PR interval change	100 ± 8.7%
COc1cc(Nc2ncc3c(n2)-c2ccc(Cl)cc2C(c2c(F)cccc2OC)=NC3)ccc1C(=O)O		patients	oral, dose not given, grade 4, any attribution, added: pembrolizumab		decreased white cell count incidence	17%
COc1ccc(C[C@@H](C)[C@@H](C)Cc2ccc(OC)c(OC)c2)cc1OC		beagle dog male, plasma	oral, 100 mg/kg/day, day 28, median		Tmax	1 h
Cc1cc(-c2nnc(N)nc2-c2ccc(F)cc2)cc(Cl)n1	refers to: decreased appetite, any grade	post-IO patients with other tumours	oral, 100 mg once daily		incidence of treatment-related AE	23.8%
O=C(O)CCC(=O)O.[2H]C([2H])([2H])Oc1cc(C)c2[nH]ccc2c1CN1CC[C@@H](C2CC2)C[C@H]1c1ccc(C(=O)O)cc1	multiple ascending dose	healthy Chinese subjects	125 mg twice daily		subjects with lymphopenia	0%
CC(C)(C(=O)N1CCOc2c(C#N)cncc2C1)C(F)F	refers to: vessel puncture site hypoaesthesia	healthy humans, both sexes	oral, 40 mg single dose		subjects with TEAE	16.7%
Cc1nc(C(=O)NCC(=O)O)c(O)c2ccc(Oc3ccccc3)cc12					pKa (basic)	< 2
Cc1cccc(CNC(=O)c2cn(CCNC(=O)c3ccccc3Sc3c([N+](=O)[O-])ncn3C)c3cc4c(cc3c2=O)OC(F)(F)O4)n1		Sprague-Dawley rat, male, plasma	intravenous, 5 mg/kg		C0	1460 ± 94.7 ng/mL
CNCCOC12CC3(C)CC(C)(CC(Cn4ncc(-c5ccc(N6CCc7cccc(C(=O)Nc8nc9ccccc9s8)c7C6)nc5C(=O)O)c4C)(C3)C1)C2		beagle dog, male, anaesthetised	intravenous bolus, 0.03 mg/kg, 105 min	relative to: baseline	QTcV interval change	9 ms
Cc1ccc(Sc2ccccc2N2CCNCC2)c(C)c1	refers to: postural dizziness	healthy adult men	oral, 5 mg daily, 12 days		participants with TEAE	0%
COc1ccc2c3c([nH]c2c1)[C@H](CC(C)C)N1C(=O)[C@H](CC(=O)NC(C)C)NC(=O)[C@@H]1C3		wild-type mouse	oral, 100 mg/kg daily, 23 days		spleen to body weight ratio	0.28% and 0.29%
O=C(CCCN1CC=C(n2c(=O)[nH]c3ccccc32)CC1)c1ccc(F)cc1		male Hartley guinea pigs, anaesthetized	intravenous, 0.03 mg/kg over 10 min, after infusion		mean blood pressure	29 ± 0.2 mmHg
Cc1nnc(C(=O)NC(C)(C)c2nc(C(=O)NCc3ccc(F)cc3)c(O)c(=O)n2C)o1					pKa (basic)	< 2
CCC(CC)C(=O)Oc1cccc(C(O)CCN)c1.O=CO (stereo not drawn)	scotopic ERG	BALB/cJ mice	intraperitoneal, 10 mg/kg, 0.5 h dark adaptation, added: 10,000 lx photobleach, 10 min		ERG b-wave amplitude	0 µV
COCc1cc(C(=O)Nc2cc([C@H]3CC[C@@H](OC(=O)NC(C)C)C3)[nH]n2)n(C)n1		OVCAR-3 xenograft, NOD/SCID gamma mice, plasma	oral, 25 twice daily, tumour growth inhibition study		unbound C24h	28 nM
OC[C@H]1O[C@@H](c2ccc(F)c(Cc3cc4ccccc4s3)c2)[C@H](O)[C@@H](O)[C@@H]1O		Japanese type 1 diabetes patients	oral, 100 mg/day, day 13		hypoglycaemia adverse events	7 % patients
CC(C)n1c(Nc2cccnc2)nc2cnc(Nc3ccc(N4CCN(C)CC4)cc3)nc21	refers to: oral ulcers	healthy male subjects	oral, 100 mg, study, added: gemfibrozil		subjects with adverse event	0%
C[C@@H]1COCCN1c1cc(C2([S@](C)(=N)=O)CC2)nc(-c2cc[nH]c3nccc2-3)n1		Japanese advanced solid tumour patients	oral, 240 mg twice daily, CTCAE grade ≥3		Constipation incidence	0%

For quick reference, copied from above:
Structure (SMILES)	test	test system	setting	how to read	quantity	value
Cc1nc(C(=O)NCC(=O)O)c(O)c2ccc(Oc3ccccc3)cc12					pKa (basic)	< 2
Cc1cccc(CNC(=O)c2cn(CCNC(=O)c3ccccc3Sc3c([N+](=O)[O-])ncn3C)c3cc4c(cc3c2=O)OC(F)(F)O4)n1		Sprague-Dawley rat, male, plasma	intravenous, 5 mg/kg		C0	1460 ± 94.7 ng/mL
CNCCOC12CC3(C)CC(C)(CC(Cn4ncc(-c5ccc(N6CCc7cccc(C(=O)Nc8nc9ccccc9s8)c7C6)nc5C(=O)O)c4C)(C3)C1)C2		beagle dog, male, anaesthetised	intravenous bolus, 0.03 mg/kg, 105 min	relative to: baseline	QTcV interval change	9 ms
Cc1ccc(Sc2ccccc2N2CCNCC2)c(C)c1	refers to: postural dizziness	healthy adult men	oral, 5 mg daily, 12 days		participants with TEAE	0%
COc1ccc2c3c([nH]c2c1)[C@H](CC(C)C)N1C(=O)[C@H](CC(=O)NC(C)C)NC(=O)[C@@H]1C3		wild-type mouse	oral, 100 mg/kg daily, 23 days		spleen to body weight ratio	0.28% and 0.29%
O=C(CCCN1CC=C(n2c(=O)[nH]c3ccccc32)CC1)c1ccc(F)cc1		male Hartley guinea pigs, anaesthetized	intravenous, 0.03 mg/kg over 10 min, after infusion		mean blood pressure	29 ± 0.2 mmHg
Cc1nnc(C(=O)NC(C)(C)c2nc(C(=O)NCc3ccc(F)cc3)c(O)c(=O)n2C)o1					pKa (basic)	< 2
CCC(CC)C(=O)Oc1cccc(C(O)CCN)c1.O=CO (stereo not drawn)	scotopic ERG	BALB/cJ mice	intraperitoneal, 10 mg/kg, 0.5 h dark adaptation, added: 10,000 lx photobleach, 10 min		ERG b-wave amplitude	0 µV
COCc1cc(C(=O)Nc2cc([C@H]3CC[C@@H](OC(=O)NC(C)C)C3)[nH]n2)n(C)n1		OVCAR-3 xenograft, NOD/SCID gamma mice, plasma	oral, 25 twice daily, tumour growth inhibition study		unbound C24h	28 nM
OC[C@H]1O[C@@H](c2ccc(F)c(Cc3cc4ccccc4s3)c2)[C@H](O)[C@@H](O)[C@@H]1O		Japanese type 1 diabetes patients	oral, 100 mg/day, day 13		hypoglycaemia adverse events	7 % patients
